Results of several laboratories.
Lines come from different studies, so protocols differ. “And” joins repeats or separate records; there may be more than shown. ± marks the error that the study gave.
UniProt Q9UM07, sequence (whole entry, looked up): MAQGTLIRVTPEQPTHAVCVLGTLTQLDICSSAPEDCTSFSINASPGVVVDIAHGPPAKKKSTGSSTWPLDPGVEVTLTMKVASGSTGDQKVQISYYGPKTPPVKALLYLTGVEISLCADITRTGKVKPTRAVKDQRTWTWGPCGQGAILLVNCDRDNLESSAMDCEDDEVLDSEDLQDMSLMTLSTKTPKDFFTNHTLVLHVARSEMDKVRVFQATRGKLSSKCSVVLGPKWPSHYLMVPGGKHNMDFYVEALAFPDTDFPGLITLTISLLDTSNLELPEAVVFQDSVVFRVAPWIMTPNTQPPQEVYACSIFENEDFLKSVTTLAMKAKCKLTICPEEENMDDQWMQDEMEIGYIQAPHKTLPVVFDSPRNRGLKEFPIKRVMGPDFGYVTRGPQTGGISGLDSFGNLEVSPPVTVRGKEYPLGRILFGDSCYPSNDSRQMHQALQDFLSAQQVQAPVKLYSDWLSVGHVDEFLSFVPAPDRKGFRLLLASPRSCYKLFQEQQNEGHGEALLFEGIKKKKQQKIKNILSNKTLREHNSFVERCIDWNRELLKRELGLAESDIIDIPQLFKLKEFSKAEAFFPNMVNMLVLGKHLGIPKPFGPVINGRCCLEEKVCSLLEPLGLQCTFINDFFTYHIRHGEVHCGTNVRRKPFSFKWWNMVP
UniProt P21554, sequence (whole entry, unmodified, looked up): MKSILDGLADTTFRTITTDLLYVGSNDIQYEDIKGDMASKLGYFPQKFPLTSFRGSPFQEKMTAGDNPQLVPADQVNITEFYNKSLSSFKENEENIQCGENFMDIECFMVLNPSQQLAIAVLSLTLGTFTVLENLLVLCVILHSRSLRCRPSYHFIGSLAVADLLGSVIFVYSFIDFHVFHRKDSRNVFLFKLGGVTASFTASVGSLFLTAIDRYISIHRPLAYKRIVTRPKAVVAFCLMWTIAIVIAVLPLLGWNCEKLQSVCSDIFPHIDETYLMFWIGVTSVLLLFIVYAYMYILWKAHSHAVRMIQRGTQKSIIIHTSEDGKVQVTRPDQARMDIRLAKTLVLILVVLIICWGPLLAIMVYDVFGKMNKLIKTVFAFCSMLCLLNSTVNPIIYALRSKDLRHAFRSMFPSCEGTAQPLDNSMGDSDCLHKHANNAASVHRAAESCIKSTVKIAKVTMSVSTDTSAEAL
UniProt P68400, sequence (whole entry, looked up): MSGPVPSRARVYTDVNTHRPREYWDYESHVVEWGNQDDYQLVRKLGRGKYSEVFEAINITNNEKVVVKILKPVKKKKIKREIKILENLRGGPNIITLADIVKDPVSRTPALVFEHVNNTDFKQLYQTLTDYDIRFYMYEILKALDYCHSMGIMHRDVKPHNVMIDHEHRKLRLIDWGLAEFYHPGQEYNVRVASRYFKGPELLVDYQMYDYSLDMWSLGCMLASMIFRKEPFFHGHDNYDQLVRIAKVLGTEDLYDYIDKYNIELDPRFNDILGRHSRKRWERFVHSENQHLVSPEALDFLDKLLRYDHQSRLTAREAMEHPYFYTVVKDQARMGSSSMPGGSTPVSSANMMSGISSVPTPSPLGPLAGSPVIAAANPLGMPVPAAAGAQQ
UniProt P21709, sequence (whole entry, looked up): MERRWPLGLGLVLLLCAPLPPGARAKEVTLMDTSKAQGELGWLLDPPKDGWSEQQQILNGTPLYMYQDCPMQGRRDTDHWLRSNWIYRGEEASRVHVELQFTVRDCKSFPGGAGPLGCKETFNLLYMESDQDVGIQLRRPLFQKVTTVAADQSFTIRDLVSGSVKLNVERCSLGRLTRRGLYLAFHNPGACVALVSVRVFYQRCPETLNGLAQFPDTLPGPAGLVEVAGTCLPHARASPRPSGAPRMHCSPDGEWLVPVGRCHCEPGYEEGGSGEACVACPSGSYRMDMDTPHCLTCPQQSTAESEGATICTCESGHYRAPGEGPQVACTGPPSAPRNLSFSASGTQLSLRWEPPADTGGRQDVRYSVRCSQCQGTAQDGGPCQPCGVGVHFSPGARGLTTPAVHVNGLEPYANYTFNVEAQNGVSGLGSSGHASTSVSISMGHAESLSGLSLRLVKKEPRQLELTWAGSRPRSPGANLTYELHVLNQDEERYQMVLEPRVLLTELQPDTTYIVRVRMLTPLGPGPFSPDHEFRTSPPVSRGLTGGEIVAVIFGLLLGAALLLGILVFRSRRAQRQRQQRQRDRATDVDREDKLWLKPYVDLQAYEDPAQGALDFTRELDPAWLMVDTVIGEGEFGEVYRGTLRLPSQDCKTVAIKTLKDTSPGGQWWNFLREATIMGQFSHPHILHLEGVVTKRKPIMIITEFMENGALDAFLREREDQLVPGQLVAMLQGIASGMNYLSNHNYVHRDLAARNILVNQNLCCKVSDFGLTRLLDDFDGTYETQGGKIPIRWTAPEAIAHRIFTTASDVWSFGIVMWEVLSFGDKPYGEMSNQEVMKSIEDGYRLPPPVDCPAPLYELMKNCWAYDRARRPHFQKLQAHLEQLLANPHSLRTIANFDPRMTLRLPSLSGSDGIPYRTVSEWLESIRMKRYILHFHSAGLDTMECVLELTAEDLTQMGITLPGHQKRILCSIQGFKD
UniProt Q00526, sequence (whole entry, looked up): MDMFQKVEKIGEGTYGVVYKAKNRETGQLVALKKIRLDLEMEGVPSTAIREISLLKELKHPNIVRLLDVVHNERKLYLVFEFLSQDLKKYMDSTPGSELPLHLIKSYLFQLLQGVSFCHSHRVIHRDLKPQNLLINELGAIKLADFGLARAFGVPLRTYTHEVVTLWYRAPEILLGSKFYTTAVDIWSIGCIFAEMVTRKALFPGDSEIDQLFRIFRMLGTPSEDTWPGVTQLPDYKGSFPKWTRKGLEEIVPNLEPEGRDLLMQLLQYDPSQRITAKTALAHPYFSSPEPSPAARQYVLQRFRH
UniProt Q86UE8, sequence (whole entry, looked up): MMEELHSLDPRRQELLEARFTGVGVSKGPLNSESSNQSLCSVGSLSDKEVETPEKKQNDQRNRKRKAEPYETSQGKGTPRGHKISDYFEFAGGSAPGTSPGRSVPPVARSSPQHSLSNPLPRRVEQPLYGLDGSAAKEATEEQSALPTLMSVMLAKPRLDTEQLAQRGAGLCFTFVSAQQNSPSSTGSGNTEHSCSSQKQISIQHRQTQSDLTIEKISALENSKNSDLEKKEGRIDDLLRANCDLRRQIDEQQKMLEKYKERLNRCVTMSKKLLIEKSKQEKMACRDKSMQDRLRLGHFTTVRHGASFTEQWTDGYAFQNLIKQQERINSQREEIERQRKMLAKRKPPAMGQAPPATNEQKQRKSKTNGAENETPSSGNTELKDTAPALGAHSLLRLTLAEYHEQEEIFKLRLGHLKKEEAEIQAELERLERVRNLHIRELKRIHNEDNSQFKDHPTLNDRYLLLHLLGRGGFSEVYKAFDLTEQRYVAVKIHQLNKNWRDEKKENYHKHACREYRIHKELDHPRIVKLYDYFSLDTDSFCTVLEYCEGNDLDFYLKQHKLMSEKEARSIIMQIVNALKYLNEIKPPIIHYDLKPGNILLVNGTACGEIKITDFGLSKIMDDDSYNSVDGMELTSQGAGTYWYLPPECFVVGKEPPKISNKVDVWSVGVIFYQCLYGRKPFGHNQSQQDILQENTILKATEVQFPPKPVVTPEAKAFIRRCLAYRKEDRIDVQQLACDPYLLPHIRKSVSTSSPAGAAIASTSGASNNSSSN
UniProt P05771, sequence (whole entry, looked up): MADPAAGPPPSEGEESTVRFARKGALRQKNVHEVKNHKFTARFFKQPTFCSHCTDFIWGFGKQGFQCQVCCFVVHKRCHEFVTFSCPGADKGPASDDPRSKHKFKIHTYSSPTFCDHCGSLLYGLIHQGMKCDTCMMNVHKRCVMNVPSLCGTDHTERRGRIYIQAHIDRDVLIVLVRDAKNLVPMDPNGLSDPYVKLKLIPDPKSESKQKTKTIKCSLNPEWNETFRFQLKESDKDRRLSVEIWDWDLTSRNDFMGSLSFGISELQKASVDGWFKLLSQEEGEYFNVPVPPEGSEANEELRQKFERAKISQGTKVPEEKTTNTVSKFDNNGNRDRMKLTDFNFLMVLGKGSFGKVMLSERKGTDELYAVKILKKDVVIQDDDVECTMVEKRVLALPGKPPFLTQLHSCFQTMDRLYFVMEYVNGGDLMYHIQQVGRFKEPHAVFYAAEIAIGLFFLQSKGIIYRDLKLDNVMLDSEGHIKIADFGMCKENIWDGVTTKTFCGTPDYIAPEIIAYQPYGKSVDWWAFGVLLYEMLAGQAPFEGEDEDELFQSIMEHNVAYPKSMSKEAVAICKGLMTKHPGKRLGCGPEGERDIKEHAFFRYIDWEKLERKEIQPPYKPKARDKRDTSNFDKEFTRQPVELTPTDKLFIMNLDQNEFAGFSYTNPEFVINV

CC(C)(C)C(=O)OCOP(=O)(OCOC(=O)C(C)(C)C)C1CCCN(O)C1=O (stereo not drawn)
GI50 (LOX IMVI): 465 nM

CN(C)[C@H]1C[C@@]23CC[C@@]4(O2)C(=CC[C@]2(C)[C@@H](c5ccc6ccncc6c5)CC[C@H]24)C=C3[C@@H](O)[C@@H]1O
inhibition (TLK2 (Homo sapiens, UniProt Q86UE8); ATP probe labelling, inhibitor, KiNativ profiling; 0.1 µM): -2.4%

O=C1NC2(CC2)COc2ncc(F)cc2[C@H]2COCCN2c2ccn3ncc1c3n2
organ-to-body weight ratio (Sprague-Dawley rat, female, uterus; oral, 5 mg/kg/day, 4 weeks dosing, end of recovery): 0.266 ± 0.098%

O=[N+]([O-])CC(c1ccco1)c1c(-c2ccccc2)[nH]c2ccccc12 (stereo not drawn)
Emax (CNR1 (Homo sapiens, UniProt P21554, V249A); Gαi1-γ2 dissociation, BRET): 67 ± 3.85%

N[C@H](C(=O)N1CCCC1)C1CCN(c2nccc3c(-c4ncc(Cl)cc4Cl)cccc23)CC1
kcat (PADI4 (Homo sapiens, UniProt Q9UM07); enzyme activity; 0.006291 µM, high-affinity site, added: Ca2+ 1.5 mM): 2.12 s⁻¹ and 2.09 s⁻¹

COc1ccccc1C(C[N+](=O)[O-])c1c(-c2ccccc2)[nH]c2ccccc12 (stereo not drawn)
Emax (CNR1 (Homo sapiens, UniProt P21554); Gαi1-γ2 dissociation, BRET): 100 ± 6.18%

O=C1NC(=O)c2c1c1cc(F)c[n+]3c1c1c2c2cc(O)ccc2[n]1[Ru-4]312([N]=C=S)[S+]3CC[S+]1CC[S+]2CC3 (stereo not drawn)
remaining activity (CSNK2A1 (Homo sapiens, UniProt P68400); enzyme activity; 100 nM, human enzyme, added: 10 µM ATP; baseline: untreated): 112%

COc1ccccc1-c1n[nH]c2nc(N[C@H]3CC[C@H](NS(=O)(=O)CC(C)C)CC3)ncc12
relative abundance (bead binding, competition bead pull-down, refers to: LINJ.28.2700; Leishmania donovani extract; 10 µM; baseline: vehicle): 1.49

Nc1ccc(/C=C/C(=O)N2CCc3c(oc4c(-c5ccc(F)cc5)cc(-c5ccc(C(=O)N6CCC(F)(F)CC6)cn5)cc34)C2)cn1
remaining binding (CDK3 (Homo sapiens, UniProt Q00526); binding, competition with immobilised ligand; 1 µM): 97%

CC(C)[C@H]1NC(=O)C[C@H]2/C=C/CCSSC[C@@H](NC1=O)C(=O)N[C@H](Cc1cccc3ccccc13)C(=O)NCC(=O)O2
inhibition (EPHA1 (Homo sapiens, UniProt P21709); enzyme activity, inhibitor; 10 µM): -6.9%

COc1ccccc1-c1n[nH]c2nc(NC3CCN(C(=O)Cc4ccc(F)cc4F)CC3)ncc12
relative abundance (bead binding, competition bead pull-down, refers to: LINJ.35.1490; Leishmania donovani axenic amastigote extract; 10 µM; baseline: vehicle): 1.07

CS(C)(=O)=Nc1ccc(-c2ccc(-c3nc4cc(O[C@@H]5CO[C@H]6[C@@H]5OC[C@H]6O)[nH]c4cc3F)cc2)cc1
inhibition (Protein kinase C beta type, isoform beta-II (PRKCB, Homo sapiens, UniProt P05771); kinase activity; 10 µM): 8%

Repeated from above:
CN(C)[C@H]1C[C@@]23CC[C@@]4(O2)C(=CC[C@]2(C)[C@@H](c5ccc6ccncc6c5)CC[C@H]24)C=C3[C@@H](O)[C@@H]1O
inhibition (TLK2 (Homo sapiens, UniProt Q86UE8); ATP probe labelling, inhibitor, KiNativ profiling; 0.1 µM): -2.4%
